Measurements from different studies.
Numbered parts are unrelated; each lists some results of a single study.

Study 1
Target: Prothrombin, mature alpha-thrombin (F2, Homo sapiens, UniProt P00734)
Technique: aptamer microarray, sandwich
Form: DNA with 2'F-ANA
Matrix: in vitro
Concentration: 200 nM
Notes: whole 15-mer aptamer, many near background
With: Cy3 exosite-II aptamer, 400 nM
Direction: higher = stronger binding
Strand: GGTTGGTGTGGTTGG
Modification | mean fluorescence intensity [a.u.]
2'F-ANA at 1 2 3 7 8 9 11 | 235
2'F-ANA at 2 3 5 7 9 10 13 14 | 49.5
2'F-ANA at 2 5 7 13 | 63.9
2'F-ANA at 2 4 7 8 10 14 | 68.4
2'F-ANA at 1 2 5 6 8 9 10 11 12 13 14 | 51.7
2'F-ANA at 2 4 6 8 9 11 13 14 | 79.6
2'F-ANA at 2 5 9 10 11 12 14 15 | 45
2'F-ANA at 1 2 9 10 11 13 | 51.3
2'F-ANA at 2 4 5 7 10 12 13 | 47.3
2'F-ANA at 1 3 6 7 10 11 12 | 98.8
2'F-ANA at 3 5 6 8 9 10 15 | 53.5
2'F-ANA at 1 3 6 7 10 12 14 | 68.3
2'F-ANA at 2 4 8 11 12 | 541
2'F-ANA at 1 2 4 6 7 8 9 10 15 | 61.7
2'F-ANA at 3 4 6 8 9 10 11 12 13 14 15 | 134
2'F-ANA at 2 3 7 8 9 12 | 1270
2'F-ANA at 4 7 8 10 12 13 | 111
2'F-ANA at 5 9 13 15 | 49.7
2'F-ANA at 4 5 7 8 9 10 15 | 46.9
2'F-ANA at 2 4 5 6 7 8 9 12 14 | 84.4
2'F-ANA at 2 3 5 8 10 12 13 | 56.9
2'F-ANA at 1 3 4 5 7 8 10 13 | 46.5
2'F-ANA at 1 2 3 4 5 6 7 8 10 13 | 49.4
2'F-ANA at 3 5 8 9 11 12 | 213

Study 2
Target: Sal-like protein 4, full length isoform A (SALL4, Homo sapiens, UniProt Q9UJQ4, residues 1-1053)
Chain of UniProt Q9UJQ4 (whole entry, looked up): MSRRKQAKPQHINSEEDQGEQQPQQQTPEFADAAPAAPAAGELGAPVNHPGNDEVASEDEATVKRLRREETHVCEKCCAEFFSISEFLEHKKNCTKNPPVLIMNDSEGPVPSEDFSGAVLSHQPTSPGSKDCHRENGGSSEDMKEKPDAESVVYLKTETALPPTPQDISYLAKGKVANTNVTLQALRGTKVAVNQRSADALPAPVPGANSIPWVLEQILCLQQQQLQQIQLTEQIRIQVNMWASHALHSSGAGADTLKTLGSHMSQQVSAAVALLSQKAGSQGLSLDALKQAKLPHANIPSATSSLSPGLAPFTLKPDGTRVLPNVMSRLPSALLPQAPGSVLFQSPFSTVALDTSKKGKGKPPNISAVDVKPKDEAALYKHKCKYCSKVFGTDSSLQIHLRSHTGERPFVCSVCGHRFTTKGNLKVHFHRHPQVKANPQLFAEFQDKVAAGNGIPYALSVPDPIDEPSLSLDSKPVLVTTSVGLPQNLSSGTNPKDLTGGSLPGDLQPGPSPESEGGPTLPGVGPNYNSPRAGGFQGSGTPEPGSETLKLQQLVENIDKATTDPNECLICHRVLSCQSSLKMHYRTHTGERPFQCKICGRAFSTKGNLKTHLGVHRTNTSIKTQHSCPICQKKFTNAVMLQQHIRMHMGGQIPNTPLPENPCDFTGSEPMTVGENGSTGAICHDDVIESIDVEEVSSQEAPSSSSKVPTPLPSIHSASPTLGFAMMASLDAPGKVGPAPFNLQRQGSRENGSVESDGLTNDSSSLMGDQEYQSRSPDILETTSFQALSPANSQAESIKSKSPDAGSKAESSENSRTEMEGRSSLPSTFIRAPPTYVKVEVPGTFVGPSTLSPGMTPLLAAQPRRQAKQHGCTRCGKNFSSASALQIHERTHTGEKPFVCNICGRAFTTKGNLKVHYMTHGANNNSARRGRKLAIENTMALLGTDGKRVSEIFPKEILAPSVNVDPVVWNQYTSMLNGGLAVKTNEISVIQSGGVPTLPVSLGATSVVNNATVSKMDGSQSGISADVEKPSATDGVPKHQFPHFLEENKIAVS
Technique: universal PBM
Form: double-stranded DNA, one strand shown
Matrix: in vitro
Concentration: 600 nM
Notes: 8-mer, flanks averaged, mean of replicates
Direction: higher = stronger binding
Strand | E-score
ACCTGTTC | -0.0479
GTTGTCTA | 0.178
CGGCTGCC | -0.331
CCGTTTTC | -0.17
ACGAGGTC | -0.0331
AGCTTCCG | -0.259
AAAGCTAC | -0.05
CGTGACAA | 0.021
AGGACTAG | -0.0132
GCTTCGAC | -0.181
ACAGCTAC | -0.0439
CATGCCTA | -0.0658
CGGACCCA | -0.22
GGGCGTTA | -0.0552
CTTAGGTA | 0.0615
ACCAGTAC | -0.149
CCTGCAGC | -0.11
GTGGACCA | -0.242
GTGTAAAA | 0.247
CTGCGCCC | -0.419
ATGGTCGC | 0.0293
ACGCAGTC | -0.287
CAGCCCCC | -0.338

Study 3
Target: Fragile X messenger ribonucleoprotein 1, C-terminal low-complexity region (Fmr1, Mus musculus, UniProt P35922)
Technique: RNA Bind-n-Seq
Form: RNA
Matrix: in vitro
Concentration: 200 nM
Notes: whole 134-nt RNA, ends assumed
With: 150 mM LiCl
Baseline: input library
Direction: higher = stronger binding
All molecules: 7-deaza-guanosine replaces G
Constant ends, left off below: GGGAGUUCUACAGUCCGACGAUC … UGGAAUUCUCGGGUGUCAAGG
Strand | log2 enrichment
UCCUCAAGUCCUGUGCUACACAUCGUAUGUACCGAAUCGGGGAGGGAGGAGGAAAGUAUUAUGUUACGCCGUUCGGAUCUGCACUUCCAG | -1.22
AAGUCCUGUGCUACACAUCGUAUGUACCGAAUCGGAAAAAGGAAAAAAAGGAAAGGAAAGUAUUAUGUUACGCCGUUCGGAUCUGCACUU | -1.55
AGUCCUGUGCUACACAUCGUAUGUACCGAAUCAAAUUUUUAAACCCAAAUUUUUAAAAAAGUAUUAUGUUACGCCGUUCGGAUCUGCACU | -2.54
ACCAUCCAGGUGGGCAUCUUUGGGAAGUGGGGCAAGGGGGGGAUAGGGAGGGGGGUAACACUUUGGGAACAGGUGGUCCCAGGUCGUUUC | 1.41
CUGUGCUACACAUCGUAUGUACCGAAUCGGGUUUUUUUGGGUUUUUUUGGGGUUUUUUUGGGAAAGUAUUAUGUUACGCCGUUCGGAUCU | 1.1
UCCUGUGCUACACAUCGUAUGUACCGAAUCGGGGUUUGGGGUUUUUGGGGUUUUUGGGGAAAGUAUUAUGUUACGCCGUUCGGAUCUGCA | -0.715
UGGGAGGUGGAUUUUGUUUAUUUUUUUAGCUCAUUUCCAGGGGUGGGAAUUUUUUUUUAAUAUGUGUCAUGAAUAAAGUGGUUUUUGAAA | 0.413
UCAAGUCCUGUGCUACACAUCGUAUGUACCGAAUCGGGAAAAAGGGAGGGUGGGAAAGUAUUAUGUUACGCCGUUCGGAUCUGCACUUCC | -1.16
UCAAGUCCUGUGCUACACAUCGUAUGUACCGAAUCGGGAAAGGAAAGGGAAAGGGAAAGUAUUAUGUUACGCCGUUCGGAUCUGCACUUC | -0.971
CUCAGCAGACCCUGAAGGACACUUUGAGACACCAAUCUGGAUUGAGCGGGUGGUGAUAAUAGGGGCUGGAAAGCCAGCAGCUGUGGUACU | -1.16
CAAGUCCUGUGCUACACAUCGUAUGUACCGAAUCGGUUUUUGGUUUGGUUUUUGGAAAGUAUUAUGUUACGCCGUUCGGAUCUGCACUUC | -1.81

Study 4
Target: RNA binding protein fox-1 homolog 2, RRM domain, GST-SBP tag (RBFOX2, Homo sapiens, UniProt O43251-10, residues 100-194)
Technique: RNA Bind-n-Seq
Form: RNA
Matrix: in vitro
Concentration: 365 nM
Notes: natural RNA segment, single round, ends assumed
Baseline: no-protein control
Direction: higher = stronger binding
Constant ends, left off below: GGGAGUUCUACAGUCCGACGAUC … UGGAAUUCUCGGGUGCCAA
Construct (chain): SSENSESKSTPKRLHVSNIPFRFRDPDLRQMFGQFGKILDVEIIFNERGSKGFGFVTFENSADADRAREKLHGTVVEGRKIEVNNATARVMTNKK
Strand | RBNS enrichment (R)
AUACUCACUUGAGUCAGGCUCCCUCUGGCAGGAGGGAGCACUGUGGAUGUCUGCGCCAGGGCCAGCCACAUGUGCAGUUUCUCUGACCCUUUUGCCUUGACAGGUCUCUC | 0.566
UGUCAAAGCGCUACCAGCCAGGGGCAGGCCCCUGAUGCCCGGAAGCUCCUGCGUGCAUCCCCGGGAUGACCAGACUCCCGGACUCCUCAGGCAGUGCCCUUUCCUCCCAC | 0.28
AGCCCAGCAGUAGUUGGAGAGGCAGGCAGAGGGCAGUGGUUCUCCCAAAUAGGAGACCUGGGGCCUGGCCAGGCCAGGGUUUGGGCCUAAUGGCUUUGACUAAAUUACCC | 0.316
UGUUCAUAUCCCACGCCUGGGCUCUUGCCAGCAGUGGAGUUACUGUAGAGGGAUGUCCCAAGCUUGUUUUCCAAUCAGUGUUAAGCUGUUUGAAACUCUCCUGUGUCUGU | 0.326
CUCUCUGUGCUCCGUGGAGGCCUCCGUGUGCCCUCGUUGCCGUGGGGACCCAGCUCCAUGCACGUCAACCCAGUCCCGCCCAGACUAGUGGACAGACCUGGUGUCACCAG | 0.261
CACACAGUGAGAUGCACUCAAAGGACCACGUGUUAUCUGGUAAUCCAAAUUGGUUCCCCUGCUCCCCCCCUCCAACCUCUCAAAGACAGAAUGUGUCUCAGAGAUUUCCU | 1.91
UUGGAGUAAUUCAGUAUAGGUUCGUUUAAAAGAGAUUUUUAUAACUUCAGACAUGCAUCAGUAGGAAAUAACUUGAGAAAUUCAUAUGGUUAUGUUACAAAUUCAUAUUC | 1.73
CCCACCUACCCCAGAUCUACAGCUUUUUAGCUUUUAAUUUGAAUCAUCUGCAUAGUUGCUUGGAUCAUUGUUACAUCAGUUCAGCGCAUAGUAGCAAUUCUGGUGUGGCC | 0.426
GAGAUAAGGAUGAAGGGGGAGGAAAGGGUCCCUGGAGGCCUGUGCAUCUAUGCUCUGUUACAAGUGCCUUAGCAGGAGUCAGCAGCACCCUCCAGGUGCCCCUUGCCACA | 0.633
GCCUUUAAUAUGAUAUAGGAAGGCAGAUACAUUGAUAUCACUUGUAGAACUACUUUGGAAUUUAUCUCCAUUUUCCACAAAAAGAAGCUUCUUUGAUGAAGGAGGAGAGA | 0.252
CUGAUAGUUUCUUUCUUUCAUAUCACAUGUAUAGAGAAAUAAUUAUAUCAGAAACUCACAAACCUAGACAUGGAAAAACAGAUUACUGUCUAUUGUCAGCAUCAUUUUCA | 0.283
UCCCUCCACAGACAAUGUCCUCUGUUCAAUUCCUAACGCAAACUACAAUAAAUGGUGACACACGUUCAGAAGAAAUCUUCUUUGAGUCUCUUCUCUUUUGUGGAAAAAAA | 0.452

Study 5
Target: Histone acetyltransferase KAT6A, both winged helices, GST fusion (KAT6A, Homo sapiens, UniProt Q92794, residues 1-181)
Technique: protein binding microarray
Form: double-stranded DNA, one strand shown
Matrix: in vitro
Concentration: not given
Notes: 8-mer, flanks averaged, mean of 2 arrays, mostly near background
Baseline: not given
Direction: higher = stronger binding
Construct (chain): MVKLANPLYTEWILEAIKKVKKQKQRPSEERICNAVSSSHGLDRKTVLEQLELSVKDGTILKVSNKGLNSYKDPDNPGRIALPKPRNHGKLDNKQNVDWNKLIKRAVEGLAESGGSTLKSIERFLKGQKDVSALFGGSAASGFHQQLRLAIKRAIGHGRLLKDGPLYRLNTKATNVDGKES
Strand | E-score
GGATAAAC | 0.0357
GACTCCAA | -0.0885
AGGGGTTC | -0.258
CCGGCACC | 0.228
ATGGCTTA | -0.139
AAGCTTCC | 0.0198
TCGAGAGA | -0.0629
TCGCACGA | 0.0338
AGTTCCAC | -0.112
CTATCCTC | -0.201
TGGACTAA | -0.114
GTTCGAGA | -0.0113
GAGCCCCC | -0.185
TAGAACTA | -0.17
ACATTATA | -0.0972
CACGGGAC | 0.207
GAGGTCCC | -0.0325
ATTATCAA | -0.0758
GAAGTTCC | 0.0714
CTTAATCA | -0.111
ACCCACGC | 0.0828
CACGGAGG | 0.113
CGGGGGGC | 0.172
CAAACCAC | -0.0594

A few entries again (study 3):
Strand | log2 enrichment
UCCUCAAGUCCUGUGCUACACAUCGUAUGUACCGAAUCGGGGAGGGAGGAGGAAAGUAUUAUGUUACGCCGUUCGGAUCUGCACUUCCAG | -1.22
AAGUCCUGUGCUACACAUCGUAUGUACCGAAUCGGAAAAAGGAAAAAAAGGAAAGGAAAGUAUUAUGUUACGCCGUUCGGAUCUGCACUU | -1.55
AGUCCUGUGCUACACAUCGUAUGUACCGAAUCAAAUUUUUAAACCCAAAUUUUUAAAAAAGUAUUAUGUUACGCCGUUCGGAUCUGCACU | -2.54
ACCAUCCAGGUGGGCAUCUUUGGGAAGUGGGGCAAGGGGGGGAUAGGGAGGGGGGUAACACUUUGGGAACAGGUGGUCCCAGGUCGUUUC | 1.41
CUGUGCUACACAUCGUAUGUACCGAAUCGGGUUUUUUUGGGUUUUUUUGGGGUUUUUUUGGGAAAGUAUUAUGUUACGCCGUUCGGAUCU | 1.1
UCCUGUGCUACACAUCGUAUGUACCGAAUCGGGGUUUGGGGUUUUUGGGGUUUUUGGGGAAAGUAUUAUGUUACGCCGUUCGGAUCUGCA | -0.715
UGGGAGGUGGAUUUUGUUUAUUUUUUUAGCUCAUUUCCAGGGGUGGGAAUUUUUUUUUAAUAUGUGUCAUGAAUAAAGUGGUUUUUGAAA | 0.413
UCAAGUCCUGUGCUACACAUCGUAUGUACCGAAUCGGGAAAAAGGGAGGGUGGGAAAGUAUUAUGUUACGCCGUUCGGAUCUGCACUUCC | -1.16
UCAAGUCCUGUGCUACACAUCGUAUGUACCGAAUCGGGAAAGGAAAGGGAAAGGGAAAGUAUUAUGUUACGCCGUUCGGAUCUGCACUUC | -0.971
CUCAGCAGACCCUGAAGGACACUUUGAGACACCAAUCUGGAUUGAGCGGGUGGUGAUAAUAGGGGCUGGAAAGCCAGCAGCUGUGGUACU | -1.16
CAAGUCCUGUGCUACACAUCGUAUGUACCGAAUCGGUUUUUGGUUUGGUUUUUGGAAAGUAUUAUGUUACGCCGUUCGGAUCUGCACUUC | -1.81
